Results from different studies.
Each numbered part is a random draw from the data of one study; scales do not carry over between parts.
UniProt P42680, sequence (whole entry, looked up): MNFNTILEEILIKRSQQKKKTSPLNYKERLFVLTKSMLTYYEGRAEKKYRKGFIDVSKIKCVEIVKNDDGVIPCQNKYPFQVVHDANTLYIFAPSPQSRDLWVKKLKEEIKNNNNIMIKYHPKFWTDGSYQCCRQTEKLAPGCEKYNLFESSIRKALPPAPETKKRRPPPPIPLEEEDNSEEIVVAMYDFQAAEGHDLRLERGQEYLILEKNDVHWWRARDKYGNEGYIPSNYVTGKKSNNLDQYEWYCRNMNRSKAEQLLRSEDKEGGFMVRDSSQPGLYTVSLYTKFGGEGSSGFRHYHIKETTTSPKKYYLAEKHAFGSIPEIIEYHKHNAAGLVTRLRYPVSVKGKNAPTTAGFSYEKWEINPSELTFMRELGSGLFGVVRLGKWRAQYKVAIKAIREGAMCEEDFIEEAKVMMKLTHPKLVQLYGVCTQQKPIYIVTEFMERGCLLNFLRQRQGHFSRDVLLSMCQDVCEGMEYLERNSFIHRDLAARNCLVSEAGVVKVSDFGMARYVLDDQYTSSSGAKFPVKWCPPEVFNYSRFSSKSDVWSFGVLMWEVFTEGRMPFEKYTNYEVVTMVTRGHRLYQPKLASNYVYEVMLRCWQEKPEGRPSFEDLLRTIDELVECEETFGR
UniProt O14730, sequence (whole entry, looked up): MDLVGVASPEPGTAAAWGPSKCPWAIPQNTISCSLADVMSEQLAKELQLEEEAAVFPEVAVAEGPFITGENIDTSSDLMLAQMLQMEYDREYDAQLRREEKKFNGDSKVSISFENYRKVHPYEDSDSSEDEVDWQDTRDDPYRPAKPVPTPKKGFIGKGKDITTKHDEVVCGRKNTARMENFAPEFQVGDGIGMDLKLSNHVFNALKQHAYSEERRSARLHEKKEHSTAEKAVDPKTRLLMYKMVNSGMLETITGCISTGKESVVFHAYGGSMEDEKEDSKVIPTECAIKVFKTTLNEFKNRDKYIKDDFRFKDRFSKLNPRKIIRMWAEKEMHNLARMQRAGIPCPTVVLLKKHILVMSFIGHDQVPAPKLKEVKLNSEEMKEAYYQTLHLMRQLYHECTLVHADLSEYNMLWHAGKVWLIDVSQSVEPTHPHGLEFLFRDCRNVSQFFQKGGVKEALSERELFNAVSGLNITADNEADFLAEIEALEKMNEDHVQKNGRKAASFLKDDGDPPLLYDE
UniProt P0C1S8, sequence (whole entry, looked up): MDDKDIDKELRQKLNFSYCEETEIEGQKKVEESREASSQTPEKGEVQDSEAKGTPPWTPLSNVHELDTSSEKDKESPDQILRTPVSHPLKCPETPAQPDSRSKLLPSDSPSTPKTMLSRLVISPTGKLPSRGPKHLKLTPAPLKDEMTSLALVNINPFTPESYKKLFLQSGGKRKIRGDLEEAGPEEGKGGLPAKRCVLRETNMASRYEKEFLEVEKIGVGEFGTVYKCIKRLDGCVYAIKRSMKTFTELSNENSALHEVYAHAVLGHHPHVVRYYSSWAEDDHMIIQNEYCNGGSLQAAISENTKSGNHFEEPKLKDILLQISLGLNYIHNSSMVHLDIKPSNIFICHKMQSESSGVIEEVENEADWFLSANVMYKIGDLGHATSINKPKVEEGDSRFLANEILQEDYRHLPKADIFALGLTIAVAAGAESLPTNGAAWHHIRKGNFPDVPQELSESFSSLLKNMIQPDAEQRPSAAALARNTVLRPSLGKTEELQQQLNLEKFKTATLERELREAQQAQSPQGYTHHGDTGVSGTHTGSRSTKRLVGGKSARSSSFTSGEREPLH
UniProt Q96RR4, sequence (whole entry, looked up): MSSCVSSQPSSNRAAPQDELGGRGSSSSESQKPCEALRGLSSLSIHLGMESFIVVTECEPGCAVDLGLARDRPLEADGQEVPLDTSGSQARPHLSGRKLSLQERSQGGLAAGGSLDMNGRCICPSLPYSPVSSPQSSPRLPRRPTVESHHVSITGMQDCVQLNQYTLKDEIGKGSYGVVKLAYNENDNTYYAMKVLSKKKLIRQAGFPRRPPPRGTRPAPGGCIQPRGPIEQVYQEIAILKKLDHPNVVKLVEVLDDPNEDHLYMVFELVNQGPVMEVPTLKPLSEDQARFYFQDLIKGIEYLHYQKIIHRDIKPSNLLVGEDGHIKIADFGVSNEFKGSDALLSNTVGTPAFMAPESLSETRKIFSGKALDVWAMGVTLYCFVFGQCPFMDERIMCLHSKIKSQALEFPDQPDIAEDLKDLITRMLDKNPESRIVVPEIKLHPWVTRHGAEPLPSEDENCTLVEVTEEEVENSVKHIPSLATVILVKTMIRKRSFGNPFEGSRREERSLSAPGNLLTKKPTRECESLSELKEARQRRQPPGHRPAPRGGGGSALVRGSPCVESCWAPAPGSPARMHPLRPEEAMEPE
UniProt Q8WU08, sequence (whole entry, looked up): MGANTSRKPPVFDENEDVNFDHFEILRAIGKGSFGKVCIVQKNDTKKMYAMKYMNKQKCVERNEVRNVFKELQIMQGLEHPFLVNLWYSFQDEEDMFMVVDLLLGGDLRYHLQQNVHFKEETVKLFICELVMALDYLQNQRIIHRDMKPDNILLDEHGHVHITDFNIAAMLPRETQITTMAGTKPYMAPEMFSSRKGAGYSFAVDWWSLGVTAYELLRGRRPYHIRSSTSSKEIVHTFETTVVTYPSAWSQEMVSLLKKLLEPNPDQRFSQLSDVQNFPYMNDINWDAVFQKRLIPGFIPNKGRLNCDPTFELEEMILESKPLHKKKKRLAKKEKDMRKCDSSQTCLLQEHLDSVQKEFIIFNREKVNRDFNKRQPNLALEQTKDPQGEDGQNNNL
UniProt P52564, sequence (whole entry, looked up): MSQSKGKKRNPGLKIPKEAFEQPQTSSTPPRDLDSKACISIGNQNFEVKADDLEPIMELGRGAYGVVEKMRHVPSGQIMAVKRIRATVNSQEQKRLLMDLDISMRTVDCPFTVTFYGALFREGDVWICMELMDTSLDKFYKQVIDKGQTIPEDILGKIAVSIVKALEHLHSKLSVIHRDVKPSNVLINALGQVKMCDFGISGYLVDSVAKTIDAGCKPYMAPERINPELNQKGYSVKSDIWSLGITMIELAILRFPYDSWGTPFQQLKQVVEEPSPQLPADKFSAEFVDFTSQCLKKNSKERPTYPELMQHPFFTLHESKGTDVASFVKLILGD
UniProt P52333, sequence (whole entry, looked up): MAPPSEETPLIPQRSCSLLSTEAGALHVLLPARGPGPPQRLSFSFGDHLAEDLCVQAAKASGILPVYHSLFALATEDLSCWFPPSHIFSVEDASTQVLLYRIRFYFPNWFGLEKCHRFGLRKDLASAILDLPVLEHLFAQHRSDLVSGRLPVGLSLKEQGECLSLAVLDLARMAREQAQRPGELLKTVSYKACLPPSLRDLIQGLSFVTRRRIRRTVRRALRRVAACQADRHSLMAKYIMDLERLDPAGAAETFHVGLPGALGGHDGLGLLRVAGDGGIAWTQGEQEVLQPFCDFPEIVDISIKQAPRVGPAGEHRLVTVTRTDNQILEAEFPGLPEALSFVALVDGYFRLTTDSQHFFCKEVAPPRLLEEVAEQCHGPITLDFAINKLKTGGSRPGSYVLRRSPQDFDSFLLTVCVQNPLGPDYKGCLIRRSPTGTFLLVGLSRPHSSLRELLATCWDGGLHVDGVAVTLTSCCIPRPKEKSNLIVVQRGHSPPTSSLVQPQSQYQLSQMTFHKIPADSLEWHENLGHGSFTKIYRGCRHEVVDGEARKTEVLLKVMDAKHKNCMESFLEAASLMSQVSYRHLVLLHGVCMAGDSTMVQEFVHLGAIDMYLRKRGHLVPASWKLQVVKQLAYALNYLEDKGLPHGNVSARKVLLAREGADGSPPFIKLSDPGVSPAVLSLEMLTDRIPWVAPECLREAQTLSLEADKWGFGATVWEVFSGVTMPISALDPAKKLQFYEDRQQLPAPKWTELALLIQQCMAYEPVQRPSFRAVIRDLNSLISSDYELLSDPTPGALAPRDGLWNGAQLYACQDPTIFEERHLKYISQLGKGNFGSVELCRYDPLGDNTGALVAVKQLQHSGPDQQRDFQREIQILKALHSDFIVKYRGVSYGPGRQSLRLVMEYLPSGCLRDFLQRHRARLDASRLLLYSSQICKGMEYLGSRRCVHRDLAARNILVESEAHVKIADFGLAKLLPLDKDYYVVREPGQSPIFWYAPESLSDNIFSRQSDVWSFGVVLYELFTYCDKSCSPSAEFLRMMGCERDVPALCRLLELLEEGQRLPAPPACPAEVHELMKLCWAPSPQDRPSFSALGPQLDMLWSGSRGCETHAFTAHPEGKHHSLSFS
UniProt P51451, sequence (whole entry, looked up): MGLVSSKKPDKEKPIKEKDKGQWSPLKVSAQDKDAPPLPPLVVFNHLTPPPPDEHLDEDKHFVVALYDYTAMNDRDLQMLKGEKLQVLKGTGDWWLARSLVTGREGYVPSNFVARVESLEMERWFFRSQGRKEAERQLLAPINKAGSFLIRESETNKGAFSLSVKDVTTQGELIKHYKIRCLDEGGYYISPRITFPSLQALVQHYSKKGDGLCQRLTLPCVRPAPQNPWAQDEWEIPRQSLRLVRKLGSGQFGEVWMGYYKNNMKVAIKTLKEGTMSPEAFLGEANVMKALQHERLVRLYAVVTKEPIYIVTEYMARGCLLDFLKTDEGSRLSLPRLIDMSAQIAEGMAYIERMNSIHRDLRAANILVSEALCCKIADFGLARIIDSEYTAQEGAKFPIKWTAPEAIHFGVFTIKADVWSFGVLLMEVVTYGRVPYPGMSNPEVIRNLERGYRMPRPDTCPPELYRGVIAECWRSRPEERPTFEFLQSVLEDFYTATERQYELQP

Sample 1
Target: Transcription factor SOX-2, HMG box (Sox2, Mus musculus, UniProt P48432, residues 41-119)
UniProt P48432, sequence (41-119, looked up): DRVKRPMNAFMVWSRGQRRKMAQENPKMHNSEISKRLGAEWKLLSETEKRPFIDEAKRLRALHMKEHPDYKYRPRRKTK
Technique: Spec-seq
Form: double-stranded DNA, one strand shown
Matrix: in vitro
Concentration: not given
Notes: whole probe, mean of replicates
Reference: not given
Reading: lower = stronger binding
Endpoint: relative binding energy
Constant ends, left off below: GAGTCGTCTCGTCAGCAC … CCGTAGAGCACTCAGGTC
ATGGGTT: 0.856 ln ratio
GGGGGTT: 1.71 ln ratio
ACTAGTT: -0.438 ln ratio
CATTGCA: -0.0958 ln ratio
CATCTTA: 0.72 ln ratio
CATCTGG: 0.739 ln ratio
CATCTAT: 0.358 ln ratio
GCAGGTT: 1.39 ln ratio

Sample 2
Species: human
Matrix: microsomes or S9
Concentration: 2 µM
Time: 0.5 h
Endpoint: remaining compound
CCCN(CC(=O)OC(C)(C)C)C(=O)Cc1c(C)[nH]c2ccnn2c1=O: 72.8%
CC(C)N(C(=O)COc1nc(Cl)cc(Cl)n1)c1ccccc1: 80.9%
Brc1ccc(OCCn2cc(/C=N/n3cnnc3)c3ccccc32)cc1: 64.5%

Sample 3
Structure (SMILES): COc1cc(-c2cn(C3CCc4c(F)cccc4N(CC(F)(F)F)C3=O)nn2)ccc1-n1cnc(C)c1 (centres unmarked)
Effect on: cell-free assay
Technique: competition with immobilised ligand
Concentration: 1 µM
Endpoint: remaining binding
DDR2 (Homo sapiens, UniProt Q16832): 100%
CAMKK2 (Homo sapiens, UniProt Q96RR4): 100%
NEK7 (Homo sapiens, UniProt Q8TDX7): 100%
MAP2K6 (Homo sapiens, UniProt P52564): 100%
RIOK3 (Homo sapiens, UniProt O14730): 100%
RIPK4 (Homo sapiens, UniProt P57078): 56%
STK32A (Homo sapiens, UniProt Q8WU08): 100%
BLK (Homo sapiens, UniProt P51451): 100%
Tyrosine-protein kinase JAK3, JH1 (JAK3, Homo sapiens, UniProt P52333): 100%
TEC (Homo sapiens, UniProt P42680): 100%
EIF2AK2 (Homo sapiens, UniProt P19525): 100%
EGFR (Homo sapiens, UniProt P00533, del747-752/P753S): 0%
WEE2 (Homo sapiens, UniProt P0C1S8): 100%

Sample 4
Target: RNA binding protein fox-1 homolog 2, RRM domain, GST-SBP tag (RBFOX2, Homo sapiens, UniProt O43251-10, residues 100-194)
Technique: RNA Bind-n-Seq
Form: RNA
Matrix: in vitro
Concentration: 365 nM
Notes: natural RNA segment, single round, ends assumed
Reference: no-protein control
Reading: higher = stronger binding
Endpoint: RBNS enrichment (R)
Residues (chain): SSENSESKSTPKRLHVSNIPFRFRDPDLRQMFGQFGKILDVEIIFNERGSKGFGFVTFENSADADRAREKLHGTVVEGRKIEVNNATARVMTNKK
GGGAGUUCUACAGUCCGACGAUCAAACAGAACACUGGAUUCUUCCUGUUAACUUCACCGAGAGUAGCUACAAAGGUGGACUUAGAGCCAAGCACAAUCUCACAACGAUUCCAGAAUUCCCUAGAGACCUCUUGUGGAAUUCUCGGGUGCCAA: 0.262
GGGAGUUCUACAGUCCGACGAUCCUGUGGGCCAGAAAGCAGGCACCAGGGCUGACCUCAAGGCCGUAUCAGAGGGCCAAGCAGAGUUCUUUUGGAUACCUGCUUUUCAUCCCACAGGGCCUUAGAGUCAGAGGUGGAAUUCUCGGGUGCCAA: 0.342
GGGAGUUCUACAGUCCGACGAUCUUUUCCAGUUAGUCUUCUUCAAGGAAUUACUAUUGUUCCUUUUGUCACAGGUAAAAUCAGUGUUGGGAAUUAUAAUUUGAGAAAAAUAUUACCCAGUAACAUUGAAUGUAUGGAAUUCUCGGGUGCCAA: 0.468
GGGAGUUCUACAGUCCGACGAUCUGCCCAUGCUGUCUACUGUGCCUCCUUAUGAGGGCAUCAUGUUGGUCUCUGUUGUGCUUACUGCAGGCUGUAAUGGCACUUUUGCUUGUUUCACUUGUUCCCUCUGAGGCUGGAAUUCUCGGGUGCCAA: 0.875
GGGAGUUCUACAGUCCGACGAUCCUUUAGCCCCUUCAUUUUGAAUAUGAUGCCACAUAUGAAUGUUGAAGCUGAUACAUUGCACAAUUCUCUAGACACCACUCACUACACUAAUGCAGUUUUUCAAAUUCUAGUGGAAUUCUCGGGUGCCAA: 0.596
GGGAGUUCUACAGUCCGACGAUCAUGGUUUUGCUGUAAACUGUGUUUGGAACUCUGCUGAAGUGUUGCUGAAAAGCAUGGUGCUGGUAACAGUUCAACAAUCCGUGGCUGCUCAUUCUUGCCGACUCCUCCCCUGGAAUUCUCGGGUGCCAA: 3.64
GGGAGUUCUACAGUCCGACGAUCCCCUGGCCUCUCUUGUCUGCACGCCUCAUGUGGCCACUGGGAUUUGAGGGUCCACAGUGAACCUUGAUCAAAUUGCACAGUGGGUUGUUCCUCCACACACCCUCCUUUUUUGGAAUUCUCGGGUGCCAA: 3.36
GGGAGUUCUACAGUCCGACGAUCCUCCAGGCUCCUCCUCCCCCUGGCAGGCCCAGCAACAUGUGCCCCAGAUCUGGAAGGGCCUCCCUCUCUGCCAGUGUUUGGGUGGGUGUCAUGGGUGUCCCCACCCACUCUGGAAUUCUCGGGUGCCAA: 0.509

Some of these lines once more (sample 3):
TEC (Homo sapiens, UniProt P42680): 100%
EIF2AK2 (Homo sapiens, UniProt P19525): 100%
EGFR (Homo sapiens, UniProt P00533, del747-752/P753S): 0%
